Assay results of several laboratories.
Each numbered part is a random draw from the data of one study; scales do not carry over between parts. Positions count from the first letter of the parent shown.

Series 1 — method: RNA Bind-n-Seq; molecule type: RNA; medium: in vitro; tested at: 365 nM; relative to: no-protein control; reading: higher = stronger binding; endpoint: RBNS enrichment (R)
Target: RNA binding protein fox-1 homolog 2, RRM domain, GST-SBP tag (RBFOX2, Homo sapiens, UniProt O43251-10, residues 100-194)
Setting: natural RNA segment, single round, ends assumed
Constant ends, left off below: GGGAGUUCUACAGUCCGACGAUC … UGGAAUUCUCGGGUGCCAA
Construct (chain): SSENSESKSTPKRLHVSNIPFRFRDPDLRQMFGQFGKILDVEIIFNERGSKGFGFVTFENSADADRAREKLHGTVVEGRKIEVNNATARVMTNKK
GAAAGGAAUGAAUAAACUUUGUAGUAAUCAACUGUGAACUUCAAACCAGGUUGAUUUUAGUAACCCAAUUGCUUUGAUUUGACAUUAAUGUAGUCUUACAGGGCUGUGCU: 0.537
AUCUCACGACGAAUAUUCUGAUACAAUACUCAACCUCGGUAUAUAUAUAUGUGUAUAAAUAUAUGUAUAUCCCAGCGGCACUUUAUACUGUUCACUGUACAAAAGCUUAC: 0.313
ACUUCAAAAGACAGGAUUGACAAAUUCAGUCAAUACUAUUUUAGAGAUUCUGUUAGAUGAUAUGUCUGACCCAAAUUUAAUCCAUAAUAAAAAAAAAUGGGAGAUUGUUU: 0.349
ACCAUUUAUUAUACAUAUAAUCUAUUGAAUAUAAAAAGAUUCACCUUGAAAUAAUAUUUGACUAUAUAGGUACAUAUCUGUAAAAGAUGACCACCUUAACUAAAUCAGAU: 0.374
CGUUUGAAGGUUCGUUUUUUGUUGGAACUCCGGAUGUAGACUAGCCUAGCCUCAGAUCCUCCGUGAGUAUGCCUACCAAAUGUUGUGAUUAAAGAGGCAGGCGUCACCAC: 0.877
UUCAACACAAGCAAAGCAGGUUACAUGGUAAUGUUCAUUCAGUAUAUUUCUUGUUUGUGAAAUUGAAACCUCUAUAGGCAUCAUAUGCUUCUUGUCUUUAACAAAGUCUU: 0.542
AGAGUUUUAGCUGCCUUACUGAACAUUGUCCCAACAGAAAGUUCCUAUCGUUCUCCUUCCUUCUUGGCAGGCUUCAGGUUUUGCUGCAGCCCCUGGAGCCAACAUUUUGG: 0.618
CUAGAGCCUCUUUGUGACUCCACCAACUCCUUCUUGUCUCCUUUUAUUGAAGAGUCCGCACACAUACUCACCCCUCUGGUGGGCCACAUGAGGACCUGCAUCUUGCAGAU: 1.09
UUUACAUCAGGAUGCUCACGUGAUUUGUGAAUAUUUUCAUUCCAUCAACAAGGGAGUUUAAUUAUGUGUGAGACUGACACAAACCUUAAUGUAAUUUAGUUAGAAUGCCA: 0.364
GAGAAGAAAGUUACUGACUUGUGACCUAUGCUUGGCCCUGUGCCUAGUCACCUGUCACCAGGGAUUCUACUACAGUCUGCGCGCCACAGAUAGUUGCUCACACACCAUUG: 0.158
UCAGGAAACACAGACCUUAGCGAUUCUCCAUAAAAUGGCAGCCCAAUGAAAAUAAACUUGACAACUAAUUUUCAUGAAGGCUUGUGUCUUCUUUUAAAGUUAUACUUGUU: 0.241
ACAGCCCCGUAGAACCUGCAGUGUCCUGACUAAAGCUGCCGACUUGCUCUCAUUUGCAGUUUCUGUGUCAUGUUUGCUUCUUGAAUCUGAUUGACUAGAAUAUUUCUCCC: 0.846

Series 2 — method: DHFR PCA, deep sequencing; medium: yeast; with: (+)-ABA 0 µM; relative to: wild-type fitted maximum; reading: higher = stronger binding; endpoint: relative binding score
Target: ABI1, truncated, D143A, DHFR fusion (Arabidopsis thaliana)
Setting: methotrexate growth selection, single substitutions
Starting sequence: PYL1, truncated, DHFR fusion (Arabidopsis thaliana); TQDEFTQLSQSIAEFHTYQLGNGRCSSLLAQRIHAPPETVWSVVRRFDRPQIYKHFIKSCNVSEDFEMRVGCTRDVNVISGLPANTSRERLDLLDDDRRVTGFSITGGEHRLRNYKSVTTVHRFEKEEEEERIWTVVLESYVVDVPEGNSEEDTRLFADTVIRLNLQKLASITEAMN; partner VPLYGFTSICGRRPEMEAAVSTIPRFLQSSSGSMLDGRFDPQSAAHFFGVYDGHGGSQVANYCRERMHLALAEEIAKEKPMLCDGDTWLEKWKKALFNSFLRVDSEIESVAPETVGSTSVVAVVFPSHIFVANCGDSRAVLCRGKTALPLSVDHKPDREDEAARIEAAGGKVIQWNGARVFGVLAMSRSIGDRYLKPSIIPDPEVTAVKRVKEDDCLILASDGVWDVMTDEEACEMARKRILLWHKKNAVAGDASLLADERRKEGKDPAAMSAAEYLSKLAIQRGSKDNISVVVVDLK
G21N: 12.4%
I33A: 2.64%
R49W: -8.17%
E64H: 28.8%
I133T: 33.7%
S9W: 11.8%
L20D: 24.9%
V143I: -4.91%
T6P: 43.3%
S63D: 31.4%
F124A: 7.26%
G108A: 2.37%
L169K: -8.19%
I172W: 1.43%
D48F: 9.14%
S117E: 6.42%
E89A: 0.263%
E147I: 5.18%
K126R: 44.9%
A35E: 5.33%
V136A: -2.41%
C60V: 36.7%

Series 3 — target: CCNE2, cyclin fold, Cln2 fusion (human); method: yeast growth competition, sequencing; medium: yeast; setting: strong parent motif; relative to: not given; reading: higher = stronger binding; endpoint: normalised enrichment score
Starting sequence: GMNC docking peptide (human); KNAKRNLSSEFAN; partner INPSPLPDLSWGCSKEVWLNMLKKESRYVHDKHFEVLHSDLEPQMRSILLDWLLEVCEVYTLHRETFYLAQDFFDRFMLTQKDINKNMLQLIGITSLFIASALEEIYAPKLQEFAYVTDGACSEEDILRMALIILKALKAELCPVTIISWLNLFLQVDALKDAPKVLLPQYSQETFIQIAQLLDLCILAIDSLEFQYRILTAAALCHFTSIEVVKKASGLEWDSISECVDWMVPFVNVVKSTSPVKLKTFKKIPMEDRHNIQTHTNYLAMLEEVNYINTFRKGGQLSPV
KNLKRNLSSEFAN [A3L]: 0.891
KNAKRNPSSEFAN [L7P]: 0.58
KNAKGNLSSEFAN [R5G]: -0.0727
KNAKRNLSGEFAN [S9G]: 1.01
KNAKRNLSSEAAN [F11A]: 0.108
KNAKRNLSSERAN [F11R]: 0.282
KNAWRNLSSEFAN [K4W]: 0.504
KNAKRNLESEFAN [S8E]: 0.791
KNAKRNLRSEFAN [S8R]: 0.967
KNAKRELSSEFAN [N6E]: 0.748
KNAKRNLCSEFAN [S8C]: 1.36
KNAKRNHSSEFAN [L7H]: 0.444
KNAKRNLSSEFHN [A12H]: 1.07
KNTKRNLSSEFAN [A3T]: 0.8
KNAKRNLSREFAN [S9R]: 2.56
KGAKRNLSSEFAN [N2G]: 2.67
KNAKRNLQSEFAN [S8Q]: 1.62
KNAKRNLSSSFAN [E10S]: 0.74
KNQKRNLSSEFAN [A3Q]: -0.0426
KNAIRNLSSEFAN [K4I]: 1.54
KNAKRNLYSEFAN [S8Y]: 1.35
KNAKRNLSSEIAN [F11I]: 0.333
KNAKRNTSSEFAN [L7T]: 0.738

Series 4 — target: UBE2V1 UBC core domain (UniProt Q13404); method: yeast two-hybrid; medium: yeast; setting: mostly zero background; relative to: not given; reading: higher = stronger interaction; endpoint: lacZ reporter activity
B1: NFX1 RING domain (UniProt Q12986); chain IEQLTTEKYECMVCCELVRVTAPVWSCQSCYHVFHLNCIKKWARSPASQADGQSGWRCPACQNVSAHVPNTY
B2: CNOT4 RING domain (UniProt O95628); chain MSRSPDAKEDPVECPLCMEPLEIDDINFFPCTCGYQICRFCWHRIRTDENGLCPACRKPYPED
B3: ZMYND11 RING domain (UniProt Q15326); chain DEIDWETENHDWYCFECHLPGEVLICDLCFRVYHSKCLSDEFRLRDSSSPWQCPVCRSIKKKNTNKQEM
B4: TRIM41 RING domain (UniProt Q8WV44); chain PVQTLQEEAVCAICLDYFTDPVSIGCGHNFCRVCVTQLWGGEDEEDRDELDREEEEEDGEEE
B5: RUFY1 RING domain (UniProt Q96T51); chain QALKGHAWLKDDEATHCRQCEKEFSISRRKHHCRNCGHIFCNTCSSNELALPSYPKPVRVCDSCHTLLLQRCSSTAS
B6: VPS8 RING domain (UniProt Q8N3P4); chain TRGLNPKQDYCSICLQQYKRRQEMADEIIVFSCGHLYHSFCLQNKECTVEFEGQTRWTCYKCSSSNKVGKLSE
B7: ZNRF4 RING domain (UniProt Q8WWF5); chain VRTFTWHNDLCAICLDEYEEGDQLKILPCSHTYHCKCIDPWFSQAPRRSCPVCKQSVAATEDSF
B8: RNF103 RING domain (UniProt O00237); chain WPADMLHCTECVVCLENFENGCLLMGLPCGHVFHQNCIVMWLAGGRHCCPVCRWPSYKKKQPY
B9: MKRN3 RING domain (UniProt Q13064); chain FAVQRGMDKVCGICMEVVYEKANPNDRRFGILSNCNHSFCIRCIRRWRSARQFENRIVKSCPQCRVTSELVIPSE
B10: RNF182 RING domain (UniProt Q8N6D2); chain AESQASDELECKICYNRYNLKQRKPKVLECCHRVCAKCLYKIIDFGDSPQGVIVCPFCRFETCLPDDEV
B11: MARCHF1 RING domain (UniProt Q8TCQ1); chain TAPRSQSRLSVCPSTQDICRICHCEGDEESPLITPCRCTGTLRFVHQSCLHQWIKSSDTRCCELCKYDFIMETKLKPLRKWE
B12: RNF6 RING domain (UniProt Q9Y252); chain NSIDSELGKICSVCISDYVTGNKLRQLPCMHEFHIHCIDRWLSENCTCPICRQPVLGSNIAN
Residues (chain): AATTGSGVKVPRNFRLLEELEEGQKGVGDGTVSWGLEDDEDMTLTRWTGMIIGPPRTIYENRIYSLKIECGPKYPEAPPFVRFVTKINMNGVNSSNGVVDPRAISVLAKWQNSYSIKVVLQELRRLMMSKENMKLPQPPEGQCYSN
B1 (NFX1 RING domain): 0
LVKDFNPYITCYICKGYLIKPTTVTECLHTFCKTCIVQHFEDSNDCPRCGNQVHETNPLE (PCGF5 RING domain (UniProt Q86SE9)): 0
B2 (CNOT4 RING domain): 0
B3 (ZMYND11 RING domain): 0
B4 (TRIM41 RING domain): 0
B5 (RUFY1 RING domain): 0
B6 (VPS8 RING domain): 0
B7 (ZNRF4 RING domain): 0
B8 (RNF103 RING domain): 0
B9 (MKRN3 RING domain): 0
FDPPLESKYECPICLMALREAVQTPCGHRFCKACIIKSIRDAGHKCPVDNEILLENQLFP (TRAF6 RING domain (UniProt Q9Y4K3)): 0
B10 (RNF182 RING domain): 0
B11 (MARCHF1 RING domain): 0
FAEQPSVKLCCQLCCSVFKDPVITTCGHTFCRRCALKSEKCPVDNVKLTVVVNNI (TRAF7 RING domain (UniProt Q6Q0C0)): 0
B12 (RNF6 RING domain): 0
DDVLTKDAGECVICLEELLQGDTIARLPCLCIYHKSCIDSWFEVNRSCPEHPAD (ZNRF1 RING domain (UniProt Q8ND25)): 0

Repeated from above (series 2):
T6P: 43.3%
F124A: 7.26%
A35E: 5.33%
G21N: 12.4%
I133T: 33.7%
D48F: 9.14%
V136A: -2.41%
I33A: 2.64%
